Measurements collected from several papers.
Each numbered part is a random draw from the data of one study; scales do not carry over between parts. Changes are numbered by the printed parent chain.
UniProt Q15746, sequence (whole entry, looked up): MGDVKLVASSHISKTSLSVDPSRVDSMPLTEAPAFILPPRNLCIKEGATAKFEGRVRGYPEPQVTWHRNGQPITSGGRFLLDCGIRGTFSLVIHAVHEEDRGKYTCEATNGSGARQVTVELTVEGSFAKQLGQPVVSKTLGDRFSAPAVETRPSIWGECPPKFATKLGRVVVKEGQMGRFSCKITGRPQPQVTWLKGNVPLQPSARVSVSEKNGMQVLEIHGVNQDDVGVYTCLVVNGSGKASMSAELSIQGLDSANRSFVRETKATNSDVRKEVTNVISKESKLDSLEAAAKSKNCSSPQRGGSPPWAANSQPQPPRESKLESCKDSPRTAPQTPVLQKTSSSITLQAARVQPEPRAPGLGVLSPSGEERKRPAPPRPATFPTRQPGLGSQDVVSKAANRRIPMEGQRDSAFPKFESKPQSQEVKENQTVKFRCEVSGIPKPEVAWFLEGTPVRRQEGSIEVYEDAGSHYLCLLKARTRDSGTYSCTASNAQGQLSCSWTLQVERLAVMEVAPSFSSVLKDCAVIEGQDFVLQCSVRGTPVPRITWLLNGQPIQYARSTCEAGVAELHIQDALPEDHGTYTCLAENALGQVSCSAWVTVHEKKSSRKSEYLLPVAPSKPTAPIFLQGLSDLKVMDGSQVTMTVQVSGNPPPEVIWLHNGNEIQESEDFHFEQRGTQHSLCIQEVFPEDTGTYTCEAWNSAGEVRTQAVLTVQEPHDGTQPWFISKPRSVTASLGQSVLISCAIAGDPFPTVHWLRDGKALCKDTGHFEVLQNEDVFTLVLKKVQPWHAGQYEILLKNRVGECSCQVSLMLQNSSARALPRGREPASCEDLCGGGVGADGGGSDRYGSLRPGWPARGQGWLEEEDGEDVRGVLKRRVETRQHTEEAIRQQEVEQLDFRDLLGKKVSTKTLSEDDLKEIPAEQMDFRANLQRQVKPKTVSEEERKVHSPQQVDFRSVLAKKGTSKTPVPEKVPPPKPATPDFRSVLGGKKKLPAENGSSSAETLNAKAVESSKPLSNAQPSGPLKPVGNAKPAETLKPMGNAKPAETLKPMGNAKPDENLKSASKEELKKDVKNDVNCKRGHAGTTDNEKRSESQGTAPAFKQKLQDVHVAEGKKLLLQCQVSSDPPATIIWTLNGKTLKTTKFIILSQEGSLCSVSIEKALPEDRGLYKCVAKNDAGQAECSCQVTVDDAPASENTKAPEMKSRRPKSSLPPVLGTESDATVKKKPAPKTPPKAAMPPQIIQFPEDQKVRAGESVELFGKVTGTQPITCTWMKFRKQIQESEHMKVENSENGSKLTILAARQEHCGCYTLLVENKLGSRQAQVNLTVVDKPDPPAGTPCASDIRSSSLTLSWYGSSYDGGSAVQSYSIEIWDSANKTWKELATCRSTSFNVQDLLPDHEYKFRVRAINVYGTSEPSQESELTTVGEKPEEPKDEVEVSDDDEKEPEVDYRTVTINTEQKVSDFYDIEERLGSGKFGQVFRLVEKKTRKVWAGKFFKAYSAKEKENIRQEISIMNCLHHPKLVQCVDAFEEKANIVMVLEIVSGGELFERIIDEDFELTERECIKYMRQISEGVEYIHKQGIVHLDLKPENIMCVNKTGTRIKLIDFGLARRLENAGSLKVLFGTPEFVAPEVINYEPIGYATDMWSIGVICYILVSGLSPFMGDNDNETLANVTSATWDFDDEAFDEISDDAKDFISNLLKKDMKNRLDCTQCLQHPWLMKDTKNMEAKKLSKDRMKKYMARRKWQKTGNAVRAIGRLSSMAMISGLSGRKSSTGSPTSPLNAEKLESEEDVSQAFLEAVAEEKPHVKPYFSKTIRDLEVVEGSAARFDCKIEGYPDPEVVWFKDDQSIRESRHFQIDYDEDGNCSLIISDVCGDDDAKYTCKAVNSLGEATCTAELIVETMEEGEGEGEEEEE
UniProt P31749, sequence (whole entry, looked up): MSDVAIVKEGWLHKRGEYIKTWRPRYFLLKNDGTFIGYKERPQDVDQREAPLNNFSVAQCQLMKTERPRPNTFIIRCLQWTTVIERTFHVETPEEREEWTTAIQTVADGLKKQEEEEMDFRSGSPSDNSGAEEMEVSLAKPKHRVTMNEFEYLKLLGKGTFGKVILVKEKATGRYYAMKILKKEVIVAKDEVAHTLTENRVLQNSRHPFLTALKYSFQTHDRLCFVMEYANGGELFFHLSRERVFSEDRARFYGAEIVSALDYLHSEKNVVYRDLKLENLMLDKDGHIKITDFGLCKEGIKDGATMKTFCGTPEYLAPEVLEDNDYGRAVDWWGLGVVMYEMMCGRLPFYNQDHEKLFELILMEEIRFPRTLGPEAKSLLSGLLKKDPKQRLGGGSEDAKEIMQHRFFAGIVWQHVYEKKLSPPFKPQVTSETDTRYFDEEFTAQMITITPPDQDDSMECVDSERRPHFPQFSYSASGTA

Series 1 — target: ATF3, bZIP domain (human); technique: DHFR protein complementation; medium: yeast; reference: wild-type JUN-FOS pair; reading: higher = stronger binding
Setting: single substitutions, most at no-binding floor
Parent: JUN, bZIP domain (human); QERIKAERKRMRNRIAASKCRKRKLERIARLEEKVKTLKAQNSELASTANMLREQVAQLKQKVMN; partner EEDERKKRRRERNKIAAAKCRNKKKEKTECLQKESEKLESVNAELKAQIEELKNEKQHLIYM
Change | binding fitness [natural log]
K39L | -0.379
E32T | -0.245
R53L | -0.362
K39I | -0.403
K39H | -0.299
A40H | -0.18
L38C | -0.762
E33T | -0.259

Series 2 — effect on: cell-free assay; technique: competition with immobilised ligand; tested at: 1 µM
Structure (SMILES): COc1ccc2cc(OCC3(C(=O)O)CN(C(=O)c4ccc(F)cc4)C3)ccc2c1
target | remaining binding [%]
AKT1 (Homo sapiens, UniProt P31749) | 100
MYLK (Homo sapiens, UniProt Q15746) | 84
MAP2K2 (Homo sapiens, UniProt P36507) | 100

Series 3 — technique: RNA Bind-n-Seq; molecule type: RNA; medium: in vitro; tested at: 20 nM; setting: 6-mer, flanks averaged, single round; with: 150 mM LiCl; reference: input library; reading: higher = stronger binding
Target: TAR DNA-binding protein 43, full length, His tag (TARDBP, Homo sapiens, UniProt Q13148, residues 1-414)
Strand | 6-mer enrichment (R)
CUACAG | 0.819
UCUAGC | 0.846
UGUGAA | 1.3
AAGGAA | 0.872
CUUCAG | 0.832
UUCAAG | 0.852
UCUCGA | 0.786
ACACAU | 0.901

Mixed results
SMILES | medium | endpoint | value
CCC[C@H]1NC(=O)CSC[C@@H](C(=O)OCC)N(C)C(=O)[C@H](CC(C)C)NC(=O)[C@H](C)N(C)C(=O)[C@@H](CC(C)C)NC(=O)[C@H](C)N(C)C(=O)[C@H]2CCCN2C(=O)[C@H](CC(C)C)NC(=O)CN(CCC)C1=O | hydrocarbon/water | logD | 1.05

For quick reference, copied from above (series 3):
Strand | 6-mer enrichment (R)
CUUCAG | 0.832
UUCAAG | 0.852
